Assay results gathered from unrelated publications.
Numbers after ± are the reported error. Where no end group is shown, it is not given here. Ends that are not written are not given here. [ ]: non-standard residue; d: D form.
T1: NR1I2/RXRA (Homo sapiens); chain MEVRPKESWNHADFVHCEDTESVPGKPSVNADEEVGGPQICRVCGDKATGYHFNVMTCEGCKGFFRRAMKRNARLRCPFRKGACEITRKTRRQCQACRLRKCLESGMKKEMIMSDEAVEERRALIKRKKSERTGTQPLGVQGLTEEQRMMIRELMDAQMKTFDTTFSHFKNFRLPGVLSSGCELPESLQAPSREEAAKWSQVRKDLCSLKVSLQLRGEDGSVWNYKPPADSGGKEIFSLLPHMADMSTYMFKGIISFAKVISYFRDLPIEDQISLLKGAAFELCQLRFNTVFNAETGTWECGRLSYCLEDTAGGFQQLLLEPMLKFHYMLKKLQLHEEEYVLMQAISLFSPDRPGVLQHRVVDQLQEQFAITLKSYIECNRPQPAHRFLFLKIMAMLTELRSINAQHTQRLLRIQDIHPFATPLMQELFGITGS; chain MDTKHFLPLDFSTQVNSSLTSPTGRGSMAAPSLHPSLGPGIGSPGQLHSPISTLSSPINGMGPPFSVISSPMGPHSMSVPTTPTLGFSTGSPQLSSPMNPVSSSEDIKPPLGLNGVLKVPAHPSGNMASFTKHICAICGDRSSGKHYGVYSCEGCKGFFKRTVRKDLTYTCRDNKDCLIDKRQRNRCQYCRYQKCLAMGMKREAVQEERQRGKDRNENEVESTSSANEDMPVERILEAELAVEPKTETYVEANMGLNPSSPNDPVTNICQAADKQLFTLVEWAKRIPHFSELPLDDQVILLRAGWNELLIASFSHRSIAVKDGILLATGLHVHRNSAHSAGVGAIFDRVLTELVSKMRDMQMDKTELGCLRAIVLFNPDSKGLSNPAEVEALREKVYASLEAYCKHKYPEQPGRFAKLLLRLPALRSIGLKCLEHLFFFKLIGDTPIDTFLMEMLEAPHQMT
B1: UGT1A9 (Homo sapiens, UniProt O60656); chain GKLLVVPMDGSHWFTMRSVVEKLILRGHEVVVVMPEVSWQLGRSLNCTVKTYSTSYTLEDLDREFKAFAHAQWKAQVRSIYSLLMGSYNDIFDLFFSNCRSLFKDKKLVEYLKESSFDAVFLDPFDNCGLIVAKYFSLPSVVFARGILCHYLEEGAQCPAPLSYVPRILLGFSDAMTFKERVRNHIMHLEEHLLCHRFFKNALEIASEILQTPVTEYDLYSHTSIWLLRTDFVLDYPKPVMPNMIFIGGINCHQGKPLPMEFEAYINASGEHGIVVFSLGSMVSEIPEKKAMAIADALGKIPQTVLWRYTGTRPSNLANNTILVKWLPQNDLLGHPMTRAFITHAGSHGVYESICNGVPMVMMPLFGDQMDNAKRMETKGAGVTLNVLEMTSEDLENALKAVINDKSYKENIMRLSSLHKDRPVEPLDLAVFWVEFVMRHKGAPHLRPAAHDLTWYQYHSLDVIGFLLAVVLTVAFITFKCCAYGYRKCLGKKGRVKKAHKSKTH
Sequence of UniProt P14211 (whole entry, looked up): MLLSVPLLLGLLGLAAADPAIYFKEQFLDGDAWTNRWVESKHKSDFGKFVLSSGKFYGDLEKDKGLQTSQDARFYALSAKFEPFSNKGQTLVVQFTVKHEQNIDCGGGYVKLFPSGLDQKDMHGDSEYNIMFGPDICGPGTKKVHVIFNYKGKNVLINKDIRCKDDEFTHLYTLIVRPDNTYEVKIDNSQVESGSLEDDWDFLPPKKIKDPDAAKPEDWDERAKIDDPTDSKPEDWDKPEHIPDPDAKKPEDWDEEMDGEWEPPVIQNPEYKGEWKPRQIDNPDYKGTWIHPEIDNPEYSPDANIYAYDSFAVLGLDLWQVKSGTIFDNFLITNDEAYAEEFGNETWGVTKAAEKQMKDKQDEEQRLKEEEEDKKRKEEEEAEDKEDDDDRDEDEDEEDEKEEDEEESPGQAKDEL

Molecule | tested on | assay | system | conditions | how to read | quantity | result
Ac-DNCQYVYNV-NH2 (N-acetyl, C-amide) | mouse cathepsin G | enzyme activity | peptide, neutrophil lysate | 1.25 or 2.5 mM, pH 8.0, 37 °C |  | inhibition | inhibited
C[C@H]1C[C@H]2CSC(N)=N[C@@]2(c2nc(NC(=O)c3ccc(OC(F)F)cn3)cs2)CO1 |  | measured: CSF sAPPβ | healthy adults | 125 mg once daily, 14 days, day 15 | baseline: placebo-adjusted baseline | change from baseline | -80.2%
COc1ccc(-c2nc3ccccc3s2)cc1OCc1nnc(-c2cc([N+](=O)[O-])cc([N+](=O)[O-])c2O)o1 |  | seizure protection | albino mouse, scPTZ-induced seizure | ip, 4.0 h |  | minimal effective dose | 30 mg/kg
Cc1ccccc1/C=C/[C@]1(O)CC[C@H]2[C@@H]3CCc4cc(O)ccc4[C@H]3CC[C@@]21C | Ishikawa | alkaline phosphatase induction, agonist |  | concentration not given, 3 d | baseline: estradiol | relative stimulatory activity | 31.8%
[Nva]VIA (Nva = CCC[C@H](N)C(=O)O) | PC-12 | protection from Aβ1–42 toxicity, MTT |  | concentration not given, 6 h, Aβ to peptide ratio 1:5, with: Aβ1–42 2 µM | baseline: untreated cells | cell viability | 70%
TGAACTTGCTGACCCTCTGCTTTC (dsDNA) | T1, NR1I2/RXRA (Homo sapiens) | fluorescence anisotropy competition | double-stranded DNA, one strand shown | with: DR3 FAM |  | Ki | 131 ± 6.6 nM
vasoactive intestinal peptide | rat pancreatic acini |  |  | 10 nM, 15 min, with: 20 µM PKCθ pseudosubstrate inhibitor for 2 h | baseline: total | amylase secretion | 3.6 ± 0.4%
CC1(C)S[C@@H]2[C@H](NC(=O)[C@H](N)c3ccc(O)cc3)C(=O)N2[C@H]1C(=O)O | other Haemophilus species |  | community-acquired pneumonia patients | Fine score 70 or more |  | sensitive strains | 92.9%
COc1ccc(-c2nc3ccccc3s2)cc1OCc1nnc(Cc2ccccc2)o1 |  | hind limb tonic extension | albino mouse, MES-induced seizure | ip, 4.0 h |  | minimal effective dose | 300 mg/kg
GAGUUGAGUUGAGUUGAGUUGAGUUGAGUUGAGUUGAGUUGAGUUGAGUUGAGUU (ssRNA; single strand) | mtrB full length assumed T30I (Bacillus subtilis, UniProt P19466) | filter binding |  | with: L-tryptophan 1 mM |  | Kd | 110 ± 10 nM
UUUCAGCUCCGGUCACGCUC (ssRNA; m5C at position 10) | SRSF2 1-115 P95H (Homo sapiens, UniProt Q01130) | NanoBRET competition |  | apparent, not purified |  | Ki | 43.4 nM
CC[C@H]1OC(=O)[C@H](C)[C@@H](O[C@H]2C[C@@](C)(OC)[C@@H](O)[C@H](C)O2)[C@H](C)[C@@H](O[C@@H]2O[C@H](C)C[C@H](N(C)C)[C@H]2O)[C@](C)(O)C[C@@H](C)C(=O)[C@H](C)[C@@H](O)[C@]1(C)O | other Haemophilus species |  | community-acquired pneumonia patients | Fine score below 70 |  | sensitive strains | 0%
cholecystokinin octapeptide | rat pancreatic acini |  |  | 0.1 nM, 15 min, with: 20 µM PKCθ pseudosubstrate inhibitor for 2 h | baseline: total | amylase secretion | 7.4 ± 0.6%
V[dA]IA (D-Ala2) | PC-12 | protection from Aβ1–42 toxicity, MTT |  | concentration not given, 6 h, Aβ to peptide ratio 1:5, with: Aβ1–42 2 µM | baseline: untreated cells | cell viability | 70%
Insulin human |  | ELISA | rat, cerebellum | intranasal, 20 µg per nostril, 60 min |  | concentration | 154 ± 63.4 pg/mg tissue
V[dF]IA (D-Phe2) | PC-12 | protection from Aβ1–42 toxicity, MTT |  | concentration not given, 6 h, Aβ to peptide ratio 1:10, with: Aβ1–42 2 µM | baseline: untreated cells | cell viability | 70%
COc1ccc(-c2nc3ccccc3s2)cc1OCc1nnc(-c2ccc(N(C)C)cc2)o1 |  | seizure protection | albino mouse, scPTZ-induced seizure | ip, 0.5 h |  | minimal effective dose | 300 mg/kg
B1 (UGT1A9) | COc1ccccc1-c1oc2ccccc2c(=O)c1O | steady-state kinetics |  | pH 7.4, 37 °C |  | Vmax/Km | 18000 µL/min/mg
[Aib][Aib]IA (Aib = CC(C)(N)C(=O)O) | PC-12 | protection from Aβ1–42 toxicity, MTT |  | concentration not given, 6 h, Aβ to peptide ratio 1:5, with: Aβ1–42 2 µM | baseline: untreated cells | cell viability | 75.4%
O=C1NC(=O)C(c2ccccc2)(c2ccccc2)N1 |  | hind limb tonic extension | albino mouse, MES-induced seizure | ip, 4.0 h |  | minimal effective dose | 30 mg/kg
CC[C@H]1OC(=O)[C@H](C)[C@@H](O[C@H]2C[C@@](C)(OC)[C@@H](O)[C@H](C)O2)[C@H](C)[C@@H](O[C@@H]2O[C@H](C)C[C@H](N(C)C)[C@H]2O)[C@](C)(O)C[C@@H](C)CN(C)[C@H](C)[C@@H](O)[C@]1(C)O | other Enterobacteriaceae |  | community-acquired pneumonia patients | Fine score below 70 |  | sensitive strains | 0%
V[Aib]IA (Aib2; Aib = CC(C)(N)C(=O)O) | PC-12 | protection from Aβ1–42 toxicity, MTT |  | concentration not given, 6 h, Aβ to peptide ratio 1:1, with: Aβ1–42 2 µM | baseline: untreated cells | cell viability | 70%
COc1ccc(-c2nc3ccccc3s2)cc1OCc1nnc(-c2ccccc2)o1 |  | seizure protection | albino mouse, scPTZ-induced seizure | ip, 0.5 h |  | minimal effective dose | 30 mg/kg
TCAGCTGAATGAACTTGCTGACCCTCTGCTTTC (dsDNA) | T1, NR1I2/RXRA (Homo sapiens) | fluorescence anisotropy competition | double-stranded DNA, one strand shown | with: DR3 FAM |  | Ki | 86.5 ± 4.5 nM
QKRAA (also: backbone cyclization with non-peptidic ring/spacer; cyclic) | Calreticulin (Calr, Mus musculus, UniProt P14211) | binding, surface plasmon resonance |  | pH 7.4, 25 °C |  | Kd | 510 ± 2e-06 nM
[dI]VIA (D-Ile1) | PC-12 | protection from Aβ1–42 toxicity, MTT |  | concentration not given, 6 h, Aβ to peptide ratio 1:1, with: Aβ1–42 2 µM | baseline: untreated cells | cell viability | 70%
COc1ccc(-c2nc3ccccc3s2)cc1OCc1nnc(-c2ccc(N)cc2)o1 |  | hind limb tonic extension | albino mouse, MES-induced seizure | ip, 0.5 h |  | minimal effective dose | 30 mg/kg
CN[C@H](CC(C)C)C(=O)N[C@H]1C(=O)N[C@@H](CC(N)=O)C(=O)N[C@H]2C(=O)N[C@H]3C(=O)N[C@H](C(=O)N[C@H](C(=O)O)c4cc(O)cc(O)c4-c4cc3ccc4O)[C@H](O)c3ccc(c(Cl)c3)Oc3cc2cc(c3O[C@@H]2O[C@H](CO)[C@@H](O)[C@H](O)[C@H]2O[C@H]2C[C@](C)(N)[C@H](O)[C@H](C)O2)Oc2ccc(cc2Cl)[C@H]1O | Staphylococcus aureus CVCC546 | ELISA, measured: IL-6 | CD-1 mouse endometritis | 10 µg/mL, 24 h |  | serum cytokine level | 135 pg/mL

Repeated from above:
Molecule | tested on | assay | system | conditions | how to read | quantity | result
V[dA]IA (D-Ala2) | PC-12 | protection from Aβ1–42 toxicity, MTT |  | concentration not given, 6 h, Aβ to peptide ratio 1:5, with: Aβ1–42 2 µM | baseline: untreated cells | cell viability | 70%
Insulin human |  | ELISA | rat, cerebellum | intranasal, 20 µg per nostril, 60 min |  | concentration | 154 ± 63.4 pg/mg tissue
